Results pooled from the literature.
Each line is one published result; not all experiments were run side by side. ± gives the spread as reported.
Protein AF-9 with DOT1L: Protein AF-9, with DOT1L (Homo sapiens, UniProt P42568)
Chain of UniProt P42568 (whole entry, looked up): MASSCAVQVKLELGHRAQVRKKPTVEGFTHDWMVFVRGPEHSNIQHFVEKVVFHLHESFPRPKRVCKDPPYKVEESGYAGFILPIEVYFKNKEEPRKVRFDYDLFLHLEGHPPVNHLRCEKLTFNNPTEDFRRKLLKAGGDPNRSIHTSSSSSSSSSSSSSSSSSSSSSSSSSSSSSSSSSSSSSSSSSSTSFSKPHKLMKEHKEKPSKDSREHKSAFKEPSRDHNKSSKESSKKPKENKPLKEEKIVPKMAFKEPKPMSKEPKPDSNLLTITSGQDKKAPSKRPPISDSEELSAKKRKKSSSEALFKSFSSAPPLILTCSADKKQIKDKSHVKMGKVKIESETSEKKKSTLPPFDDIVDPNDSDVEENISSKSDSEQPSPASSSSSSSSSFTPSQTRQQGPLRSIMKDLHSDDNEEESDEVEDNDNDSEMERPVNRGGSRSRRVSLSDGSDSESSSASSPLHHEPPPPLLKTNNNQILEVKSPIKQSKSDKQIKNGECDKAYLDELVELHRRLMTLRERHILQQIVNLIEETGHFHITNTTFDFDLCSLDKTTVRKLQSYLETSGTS
CSNK1D: Casein kinase I isoform delta (CSNK1D, Homo sapiens, UniProt P48730)
Chain of UniProt P48730 (whole entry, looked up): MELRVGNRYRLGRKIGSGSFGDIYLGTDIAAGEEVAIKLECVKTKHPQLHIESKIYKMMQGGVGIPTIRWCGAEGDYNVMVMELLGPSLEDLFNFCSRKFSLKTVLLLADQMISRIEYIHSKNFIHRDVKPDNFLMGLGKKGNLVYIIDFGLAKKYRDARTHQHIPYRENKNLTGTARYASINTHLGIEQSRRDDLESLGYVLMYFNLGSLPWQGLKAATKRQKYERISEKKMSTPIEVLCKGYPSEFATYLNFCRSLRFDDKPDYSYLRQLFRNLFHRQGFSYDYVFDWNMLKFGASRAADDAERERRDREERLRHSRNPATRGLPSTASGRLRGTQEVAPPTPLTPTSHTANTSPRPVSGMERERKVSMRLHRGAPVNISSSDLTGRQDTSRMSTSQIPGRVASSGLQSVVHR
IDE: Insulin-degrading enzyme (IDE, Homo sapiens, UniProt P14735)
AR: Androgen receptor (AR, Homo sapiens, UniProt P10275)
Chain of UniProt P10275 (whole entry, looked up): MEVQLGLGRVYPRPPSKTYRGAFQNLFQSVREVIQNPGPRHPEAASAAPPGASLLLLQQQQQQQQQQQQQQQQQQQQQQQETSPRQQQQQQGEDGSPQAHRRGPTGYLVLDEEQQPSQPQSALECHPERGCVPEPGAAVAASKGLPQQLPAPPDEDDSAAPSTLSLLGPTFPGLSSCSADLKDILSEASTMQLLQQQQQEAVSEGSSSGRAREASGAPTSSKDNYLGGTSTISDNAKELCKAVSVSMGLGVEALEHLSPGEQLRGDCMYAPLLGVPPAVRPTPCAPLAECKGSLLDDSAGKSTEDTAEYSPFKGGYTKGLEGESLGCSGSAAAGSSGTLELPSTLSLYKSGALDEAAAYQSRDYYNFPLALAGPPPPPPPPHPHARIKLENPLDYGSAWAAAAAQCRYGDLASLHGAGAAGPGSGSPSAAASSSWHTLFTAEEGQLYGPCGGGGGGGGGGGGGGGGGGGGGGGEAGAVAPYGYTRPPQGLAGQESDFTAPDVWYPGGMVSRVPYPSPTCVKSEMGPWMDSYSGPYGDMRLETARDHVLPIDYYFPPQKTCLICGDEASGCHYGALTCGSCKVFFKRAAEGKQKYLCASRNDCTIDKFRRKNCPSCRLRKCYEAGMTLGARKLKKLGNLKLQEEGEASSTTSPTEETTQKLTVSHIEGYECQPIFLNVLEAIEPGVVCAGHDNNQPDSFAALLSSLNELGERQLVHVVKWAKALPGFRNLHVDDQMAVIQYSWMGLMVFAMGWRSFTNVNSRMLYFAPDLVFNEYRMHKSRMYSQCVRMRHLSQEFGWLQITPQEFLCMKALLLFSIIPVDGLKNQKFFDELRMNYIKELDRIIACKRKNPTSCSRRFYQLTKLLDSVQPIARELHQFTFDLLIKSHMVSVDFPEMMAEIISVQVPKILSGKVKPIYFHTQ
PSMB5: Proteasome Macropain subunit MB1 (PSMB5, Homo sapiens, UniProt P28074)
Chain of UniProt P28074 (whole entry, looked up): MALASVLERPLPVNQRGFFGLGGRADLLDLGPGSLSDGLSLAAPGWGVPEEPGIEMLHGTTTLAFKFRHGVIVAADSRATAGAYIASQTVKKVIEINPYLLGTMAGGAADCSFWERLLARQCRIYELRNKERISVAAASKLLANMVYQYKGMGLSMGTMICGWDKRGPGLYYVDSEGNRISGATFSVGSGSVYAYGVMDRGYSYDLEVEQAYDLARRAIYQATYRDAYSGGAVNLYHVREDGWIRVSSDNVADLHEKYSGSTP
Chain of UniProt P05181 (whole entry, looked up): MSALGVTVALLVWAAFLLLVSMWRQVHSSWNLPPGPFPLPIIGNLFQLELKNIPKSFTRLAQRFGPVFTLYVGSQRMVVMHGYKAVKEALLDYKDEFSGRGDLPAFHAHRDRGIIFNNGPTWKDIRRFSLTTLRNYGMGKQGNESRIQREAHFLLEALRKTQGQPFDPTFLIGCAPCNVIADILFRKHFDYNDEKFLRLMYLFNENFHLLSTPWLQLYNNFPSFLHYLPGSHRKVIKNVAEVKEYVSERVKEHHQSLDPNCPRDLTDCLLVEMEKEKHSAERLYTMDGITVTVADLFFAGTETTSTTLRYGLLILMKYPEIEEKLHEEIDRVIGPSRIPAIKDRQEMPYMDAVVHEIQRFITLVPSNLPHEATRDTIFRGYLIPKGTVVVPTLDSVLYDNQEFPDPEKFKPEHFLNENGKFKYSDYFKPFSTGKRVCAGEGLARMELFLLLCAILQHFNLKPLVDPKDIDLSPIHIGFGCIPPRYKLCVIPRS
Chain of UniProt P00747 (whole entry, looked up): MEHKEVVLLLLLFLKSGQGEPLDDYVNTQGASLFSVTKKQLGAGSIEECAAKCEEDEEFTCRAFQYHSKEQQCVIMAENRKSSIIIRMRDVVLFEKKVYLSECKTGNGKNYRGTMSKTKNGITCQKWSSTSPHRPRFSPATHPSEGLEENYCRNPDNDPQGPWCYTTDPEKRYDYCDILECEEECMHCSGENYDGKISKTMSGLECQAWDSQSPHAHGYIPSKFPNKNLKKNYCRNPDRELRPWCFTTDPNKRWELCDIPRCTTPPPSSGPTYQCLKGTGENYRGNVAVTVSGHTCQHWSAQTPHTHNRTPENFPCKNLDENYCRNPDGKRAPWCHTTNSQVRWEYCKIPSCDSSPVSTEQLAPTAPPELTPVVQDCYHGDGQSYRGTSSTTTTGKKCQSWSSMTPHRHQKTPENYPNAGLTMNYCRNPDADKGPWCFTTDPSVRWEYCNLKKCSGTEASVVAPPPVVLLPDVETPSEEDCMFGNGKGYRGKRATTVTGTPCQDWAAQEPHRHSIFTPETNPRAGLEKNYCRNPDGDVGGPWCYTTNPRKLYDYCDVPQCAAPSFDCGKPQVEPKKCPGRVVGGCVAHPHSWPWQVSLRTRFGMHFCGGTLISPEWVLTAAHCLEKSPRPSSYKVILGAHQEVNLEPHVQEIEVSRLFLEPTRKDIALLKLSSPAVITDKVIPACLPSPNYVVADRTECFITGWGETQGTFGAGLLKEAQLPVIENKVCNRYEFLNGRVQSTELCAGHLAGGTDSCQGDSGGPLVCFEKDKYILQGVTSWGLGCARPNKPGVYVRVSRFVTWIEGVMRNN
Chain of UniProt P00383 (whole entry, looked up): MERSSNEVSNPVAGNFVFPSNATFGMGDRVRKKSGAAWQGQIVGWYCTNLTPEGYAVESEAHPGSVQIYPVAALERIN
Chain of UniProt P07550 (whole entry, looked up): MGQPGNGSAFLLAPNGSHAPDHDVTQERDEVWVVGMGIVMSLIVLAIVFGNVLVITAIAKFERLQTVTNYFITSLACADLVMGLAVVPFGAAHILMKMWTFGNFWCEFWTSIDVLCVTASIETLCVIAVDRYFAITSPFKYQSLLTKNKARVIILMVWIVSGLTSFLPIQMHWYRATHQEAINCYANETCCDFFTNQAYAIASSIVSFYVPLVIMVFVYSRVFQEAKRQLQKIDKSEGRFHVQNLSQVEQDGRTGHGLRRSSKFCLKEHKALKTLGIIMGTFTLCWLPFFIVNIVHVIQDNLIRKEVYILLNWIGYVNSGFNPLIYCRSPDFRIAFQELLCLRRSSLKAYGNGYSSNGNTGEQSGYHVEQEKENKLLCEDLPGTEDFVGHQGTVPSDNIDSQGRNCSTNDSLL
Chain of UniProt P20618 (whole entry, looked up): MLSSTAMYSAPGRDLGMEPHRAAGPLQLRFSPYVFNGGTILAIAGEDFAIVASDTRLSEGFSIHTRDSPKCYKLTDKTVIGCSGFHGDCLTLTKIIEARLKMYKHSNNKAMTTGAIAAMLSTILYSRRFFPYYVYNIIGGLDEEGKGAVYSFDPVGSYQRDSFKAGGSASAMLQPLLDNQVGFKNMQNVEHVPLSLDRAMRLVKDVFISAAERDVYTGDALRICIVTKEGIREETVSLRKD
Chain of UniProt P14555 (whole entry, looked up): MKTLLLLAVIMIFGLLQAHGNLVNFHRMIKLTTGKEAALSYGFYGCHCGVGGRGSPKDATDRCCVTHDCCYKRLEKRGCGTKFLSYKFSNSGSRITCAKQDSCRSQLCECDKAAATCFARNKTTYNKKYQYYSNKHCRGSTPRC
Chain of UniProt P23141 (whole entry, looked up): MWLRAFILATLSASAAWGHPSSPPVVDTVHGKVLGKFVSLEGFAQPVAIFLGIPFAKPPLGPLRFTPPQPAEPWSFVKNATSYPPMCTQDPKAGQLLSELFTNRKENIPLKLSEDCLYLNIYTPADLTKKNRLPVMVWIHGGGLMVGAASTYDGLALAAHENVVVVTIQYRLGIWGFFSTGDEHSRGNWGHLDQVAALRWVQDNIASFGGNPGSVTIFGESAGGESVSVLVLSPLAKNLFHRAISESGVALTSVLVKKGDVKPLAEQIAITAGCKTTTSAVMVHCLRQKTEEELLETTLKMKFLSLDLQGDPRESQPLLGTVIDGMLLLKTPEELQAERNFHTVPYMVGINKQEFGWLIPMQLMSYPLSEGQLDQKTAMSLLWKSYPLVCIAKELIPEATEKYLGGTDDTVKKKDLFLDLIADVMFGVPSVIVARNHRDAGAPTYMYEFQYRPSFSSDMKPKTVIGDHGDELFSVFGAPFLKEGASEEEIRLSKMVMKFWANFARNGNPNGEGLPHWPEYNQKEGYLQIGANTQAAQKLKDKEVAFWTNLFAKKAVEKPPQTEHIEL

CCc1ccc(/C=N/n2c(C)nc3ccc(C)cc3c2=O)s1  IC50 (Phospholipase A2, membrane associated (Homo sapiens, UniProt P14555); enzyme activity, inhibitor, colorimetric): 58.6 ± 3.4 µM
CCO  IC50 (CES1 (Homo sapiens, UniProt P23141); pH 7.4): 23000 µM
Fc1cccc(Nc2ccc3ncc(OCC4CCNCC4)nc3c2)c1  IC50 (Protein AF-9 with DOT1L; DOT1L binding, AlphaLISA): 2.1 µM
CCn1c(-c2nc3ccc(C(=O)N4CCCC(N)C4)cc3n2C)cc2ccccc21 (centres unmarked)  IC50 (ADRB2 (Homo sapiens, UniProt P07550); antagonist, TR-FRET): > 31.6 µM
Fc1ccc(-c2nc(-c3c(F)cccc3Cl)[nH]c2-c2ccncc2)cc1  IC50 (CSNK1D; inhibitor): 0.0299 ± 0.0041 µM
CCCCN(NC(=O)[C@H](CC(C)C)NC(=O)[C@H](CC(C)C)NC(=O)OCc1ccccc1)C(=O)C(C)=O  IC50 (Proteasome component C5/PSMB5 (Homo sapiens, UniProt P20618+P28074); β5 chymotrypsin-like activity, inhibitor; with: Suc-LLVY-AMC 100 µM): 15.1 ± 3.6 µM
CCc1oc2ccccc2c1C(=O)c1cc(I)c(O)c(I)c1  IC50 (Cytochrome P450 2E1 (CYP2E1, Homo sapiens, UniProt P05181); p-nitrophenol hydroxylation; baculosomes; 10 min): 0.03 µM
Cc1ccccc1-c1ccc([C@H]2[C@@H](CO)N3CCCCN(C(=O)Nc4ccc(F)cc4)C[C@@H]23)cc1  EC50 (IDE; enzyme activity, inhibitor, fluorogenic kinetic; with: Mca-RPPGFSAFK(Dnp)-OH substrate): 3 µM
CC1=C(/C=C\C2=CCC[C@]3(C)[C@@H]([C@H](C)CCCC(C)C)CC[C@@H]23)C[C@@H](O)CC1  IC50 (PPARG (Homo sapiens, UniProt P37231); coactivator recruitment, TR-FRET; ligand-binding domain): 500 µM
COc1ccc(-c2nc3ccc(C(=O)N4CCN(C)CC4)cc3[nH]2)cc1Br  IC50 (Dihydrofolate reductase type 2 (Escherichia coli, UniProt P00383); enzyme activity; pH 7): > 2500 µM
c1cc(-c2cc3ncc(OCC4CCNCC4)nc3cc2-c2cccc(N3CCCC3)c2)cc(N2CCCC2)c1  IC50 (Protein AF-9 with DOT1L; DOT1L binding, AlphaLISA): 2.2 µM
COc1ccnc(CNC(=O)c2cnn(Cc3ccc(Cn4ccccc4=O)cc3)c2)c1F  IC50 (Plasminogen (PLG, Homo sapiens, UniProt P00747)): > 40 µM
CC1CC(C)CN(c2ccc(C=NNc3nc(-c4ccc(F)cc4)cs3)cc2)C1 (centres unmarked)  IC50 (alpha-glucosidase; enzyme activity, inhibitor; with: p-nitrophenyl-alpha-D-glucopyranoside): 16.5 µM
C[C@]12CC[C@@H]3c4ccc(O)cc4C[C@@H](CCCCCCCCC[S+]([O-])CCCC(F)(F)C(F)(F)F)[C@H]3[C@@H]1CC[C@@H]2O (some centres unmarked)  IC50 (AR; agonist): > 10 µM
CC(C)C[C@H](NC(=O)[C@H](Cc1ccccc1)N=[N+]=[N-])C(=O)N[C@@H](CC(C)(C)F)C(=O)N[C@H](/C=C/S(C)(=O)=O)Cc1ccc(CN)cc1  IC50 (PSMB5; competitive ABPP; Raji cell lysate): 0.883 µM
COc1cccc(F)c1-c1nc(-c2ccc(F)cc2)c(-c2ccncc2)[nH]1  IC50 (CSNK1D; inhibitor): 0.0436 ± 0.0069 µM
COCC(=O)N1CCC[C@H](C(=O)NCc2nc(-c3ccc(OC)cc3)cs2)C1  IC50 (uncharacterized protein (Plasmodium falciparum, UniProt A0A5K1K7U1+Q8I261+Q8IJT1); Suc-LLVY-AMC): 0.074 ± 0.015 µM
O=C(c1ccncc1)N1C[C@@H]2N[C@H](C1)[C@H]2c1ccc(/C=C/c2ccccc2)cc1  EC50 (IDE; enzyme activity, inhibitor, fluorogenic kinetic; with: Mca-RPPGFSAFK(Dnp)-OH substrate): 8.8 µM
Cc1ncc(C(=O)N[C@@H](CC2CCCCC2)C(=O)N[C@@H](CC2CCCCC2)C(=O)N[C@H](/C=C/S(C)(=O)=O)Cc2ccc(CN)cc2)s1  IC50 (PSMB5; competitive ABPP; Raji cell lysate): > 10 µM
CCCCCCOC(=O)c1ccccc1C(=O)c1ccc(N(CC)CC)cc1O  IC50 (AR; reporter gene, antagonist): 2.36 µM

Repeated from above:
c1cc(-c2cc3ncc(OCC4CCNCC4)nc3cc2-c2cccc(N3CCCC3)c2)cc(N2CCCC2)c1  IC50 (Protein AF-9 with DOT1L; DOT1L binding, AlphaLISA): 2.2 µM
COc1ccnc(CNC(=O)c2cnn(Cc3ccc(Cn4ccccc4=O)cc3)c2)c1F  IC50 (Plasminogen (PLG, Homo sapiens, UniProt P00747)): > 40 µM
